Assay results collected from several papers.
Parts stem from different laboratories: compare values within a part only.

Study 1
Target: POU, POU domain (Salpingoeca helianthica)
Method: Spec-seq
Molecule type: double-stranded DNA, one strand shown
Medium: in vitro
Concentration: not given
Setting: whole probe, mean of replicates
Relative to: not given
Direction: lower = stronger binding
All sequences stand within: GAGTCGTCTCGTCAGCAC … CCGTAGAGCACTCAGGTC
Residues (chain): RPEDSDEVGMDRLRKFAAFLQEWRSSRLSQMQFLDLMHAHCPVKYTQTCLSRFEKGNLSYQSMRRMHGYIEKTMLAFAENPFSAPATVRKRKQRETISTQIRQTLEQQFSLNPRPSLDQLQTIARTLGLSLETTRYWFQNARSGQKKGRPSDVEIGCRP
| Strand | relative binding energy [ln ratio] |
| --- | --- |
| ATGCAAGA | 1.42 |
| ATTACCAT | 0.693 |
| ATGCCTGC | 1.28 |
| GTGGTAAT | 0.487 |
| CCTATAAT | 0.353 |
| ATGCCCAG | 1.48 |
| ATGCCCGA | 1.23 |
| ATCTGGAT | 1.44 |

Study 2
Target: Interferon regulatory factor 5, full length, phosphomimetic (IRF5, Homo sapiens, UniProt Q13568-2, residues 1-514, K96S/S451D/S453D/S456D/S462D)
Method: protein-binding microarray
Molecule type: double-stranded DNA, one strand shown
Medium: in vitro
Concentration: 250 nM
Setting: 60-bp whole probe
With: salmon DNA 0.4 mg/ml
Relative to: random background probes
Direction: higher = stronger binding
All sequences stand within: GCCTAGCAC … GTCTTGATTCGCTTGACGCTGCTG
| Strand | log fluorescence [z-score] |
| --- | --- |
| GACGTTTTCCTACTGCTGACGTGCTAG | 0.5 |
| GACGATATCAGTTTCCAGACGTGCTAG | 1.7 |
| TTAGATTGCAGTATCGATTAGTGCTAG | 6.01 |
| TTAGGTCTCGGTATCTGTTAGTGCTAG | 1.26 |
| GACGGTATCGGGTTTCGGGTCGTGCTA | 5.43 |
| TTTGATCTCAGACTGGATTAGTGCTAG | 0.0871 |
| TTACATTTCAGTTTCGATTAGTGCTAG | 10.5 |
| AGAGAATGTGGAGAAATAGGGTGCTAG | -0.0245 |

Single results of other studies
| Molecule | target or system | test | system | conditions | how to read | measurement | value |
| --- | --- | --- | --- | --- | --- | --- | --- |
| CCOC(=O)c1c(C(F)(F)F)[nH]n2c(C(F)F)nnc12 | – | – | human, microsomes or S9 | 2 µM, 0.5 h | – | remaining compound | 33% |
| COc1ccc(-c2c(Nc3ccccn3)[nH]c3c(C4=CCCCC4)c(-c4ccccc4)nn3c2=O)cc1 | – | LC-MS/MS non-compartmental | human, plasma | oral, 50 mg once daily, cycle 1 | – | terminal elimination rate constant | 4.46e-06 s⁻¹ |
| PhoQ, residues 284 288 289 292 302 303 WVSSAF | PhoP, residues 12 14 15 18 19 NNFVT (Escherichia coli, UniProt P23836) | Sort-seq, item: YFP reporter | E. coli | PhoQ-PhoP variant library, with: 10 µM Mg2+ | relative to: high Mg2+ state, higher = stronger signaling | fold induction | 19.5 |
| CC(=O)N[C@@H](Cc1c[nH]c2ccccc12)C(=O)N[C@@H](CCC(=O)C=[N+]=[N-])C(=O)OC(C)C | – | histopathology | mouse C57BL/6 CES1-/-, GI tissue | subcutaneous, 0.8 mg/kg | direction not given | GI epithelial change score | 0 |

Repeated from above (single results of other studies):
| Molecule | target or system | test | system | conditions | how to read | measurement | value |
| --- | --- | --- | --- | --- | --- | --- | --- |
| COc1ccc(-c2c(Nc3ccccn3)[nH]c3c(C4=CCCCC4)c(-c4ccccc4)nn3c2=O)cc1 | – | LC-MS/MS non-compartmental | human, plasma | oral, 50 mg once daily, cycle 1 | – | terminal elimination rate constant | 4.46e-06 s⁻¹ |
| PhoQ, residues 284 288 289 292 302 303 WVSSAF | PhoP, residues 12 14 15 18 19 NNFVT (Escherichia coli, UniProt P23836) | Sort-seq, item: YFP reporter | E. coli | PhoQ-PhoP variant library, with: 10 µM Mg2+ | relative to: high Mg2+ state, higher = stronger signaling | fold induction | 19.5 |
| CCOC(=O)c1c(C(F)(F)F)[nH]n2c(C(F)F)nnc12 | – | – | human, microsomes or S9 | 2 µM, 0.5 h | – | remaining compound | 33% |
